Measured values pooled from the literature.
Each line is one published result; not all experiments were run side by side.
CALCR: Calcitonin receptor (CALCR, Homo sapiens, UniProt P30988)
VHL/BRD9 with Elongin B/C: VHL/BRD9, with Elongin B/C (Homo sapiens, UniProt P40337+Q9H8M2)

SMILES = O=C(Cc1ccc(OCc2ccccc2)cc1)NC1(C(=O)O)CCN(C(=O)c2ccc(-c3cccc(Cl)c3)cc2)CC1; tested on = P2Y purinoceptor 12 (P2RY12, Homo sapiens, UniProt Q9H244); assay = agonist, GloSensor cAMP; EC50 = > 10 µM
SMILES = CC[C@H](C)[C@@H](C(=O)N[C@@H](CC(C)C)C(=O)N[C@@H](CO)C(=O)N[C@@H](CO)C(=O)N[C@H](C(=O)N[C@@H](CCC(=O)O)C(=O)N[C@H](C(=O)NCC(=O)N[C@@H](CO)C(=O)NCC(=O)N[C@H](C(=O)N1C[C@H](O)C[C@H]1C(N)=O)[C@@H](C)O)C(C)C)[C@@H](C)O)N(C)C(=O)[C@H](C)NC(=O)CN(C)C(=O)[C@H](Cc1ccccc1)NC(=O)[C@H](CO)NC(=O)[C@H](CO)NC(=O)[C@H](CCCNC(=N)N)NC(=O)[C@H](CCC(N)=O)NC(=O)[C@H](CC(C)C)NC(=O)[C@H](Cc1ccccc1)NC(=O)[C@H](Cc1c[nH]cn1)NC(=O)[C@H](C)NC(=O)[C@H](CC(C)C)NC(=O)[C@H](CCCNC(=N)N)NC(=O)[C@H](CCC(N)=O)NC(=O)[C@@H](NC(=O)[C@H](C)NC(=O)[C@@H]1CSSC[C@H](NC(=O)[C@H](CCCNC(=N)N)NC(=O)CC[C@H](NC(=O)CCCCCCCCCCCCCCCCCCC(=O)O)C(=O)O)C(=O)N[C@@H](CC(N)=O)C(=O)N[C@@H]([C@@H](C)O)C(=O)N[C@@H](C)C(=O)N[C@@H]([C@@H](C)O)C(=O)N1)[C@@H](C)O; tested on = CALCR; assay = cAMP, agonist; EC50 = 0.000166 µM
SMILES = C#CCN1CCN(c2nc(N3CCN(c4ccc(Cc5cc(CNC(=O)[C@@H]6C[C@@H](O)CN6C(=O)[C@@H](NC(=O)C6(F)CC6)C(C)(C)C)c(O)cc5-c5scnc5C)cc4)CC3)nc(N3CCN(C(=O)C4CC4)C3)n2)CC1=O; tested on = VHL/BRD9 with Elongin B/C; assay = ternary complex formation, AlphaScreen; setting = together with: 50 nM His-BRD9 and 20 nM biotin-VCB; EC50 = 3.29 µM
SMILES = CC[C@H](C)[C@@H](C(=O)N[C@@H](CC(C)C)C(=O)N[C@@H](CO)C(=O)N[C@@H](CO)C(=O)N[C@H](C(=O)N[C@@H](CC(N)=O)C(=O)N[C@H](C(=O)NCC(=O)N[C@@H](CO)C(=O)N[C@@H](CC(N)=O)C(=O)N[C@H](C(=O)N1CCC[C@@H]1C(N)=O)[C@@H](C)O)C(C)C)[C@@H](C)O)N(C)C(=O)[C@H](C)NC(=O)CN(C)C(=O)[C@H](Cc1ccccc1)NC(=O)[C@H](CC(N)=O)NC(=O)[C@H](CC(N)=O)NC(=O)[C@H](CO)NC(=O)[C@H](CO)NC(=O)[C@H](CCCNC(=N)N)NC(=O)[C@H](Cc1c[nH]cn1)NC(=O)[C@H](CC(C)C)NC(=O)[C@H](Cc1ccccc1)NC(=O)[C@H](CCC(=O)O)NC(=O)[C@H](C)NC(=O)[C@H](CC(C)C)NC(=O)[C@H](CCCNC(=N)N)NC(=O)[C@H](CCC(N)=O)NC(=O)[C@@H](NC(=O)[C@H](C)NC(=O)[C@@H]1CSSC[C@H](NC(=O)[C@H](CCCNC(=N)N)NC(=O)CC[C@H](NC(=O)CCCCCCCCCCCCCCCCCCC(=O)O)C(=O)O)C(=O)N[C@@H](CC(N)=O)C(=O)N[C@@H]([C@@H](C)O)C(=O)N[C@@H](C)C(=O)N[C@@H]([C@@H](C)O)C(=O)N1)[C@@H](C)O; tested on = CALCR; assay = cAMP, agonist; EC50 = 0.000692 µM
SMILES = COc1cc(C2C(NC(=O)c3ccc(NC(=O)OC(C)(C)C)cc3)(C(=O)O)C(c3ccc(OC(=O)c4cccs4)c(OC)c3)C2(NC(=O)c2ccc(NC(=O)OC(C)(C)C)cc2)C(=O)O)ccc1OC(=O)c1cccs1 (centres unmarked); tested on = GLP1R (Homo sapiens, UniProt P43220, F230A); assay = cAMP, agonist; EC50 = 0.195 µM
SMILES = COc1ccc2[nH]c(-c3cccc4ccccc34)c(CCNC(=O)CI)c2n1; tested on = MTNR1B (Homo sapiens, UniProt P49286); assay = GTPγS binding, agonist, radiometric; setting = cell membranes; EC50 = 0.000646 µM
SMILES = CC(=O)NCC1CCCCN1c1nc(NCCn2nnc(C)n2)nc(N2CC3C(CCOc4cc(-c5scnc5C)ccc4CNC(=O)[C@@H]4C[C@@H](O)CN4C(=O)[C@@H](NC(=O)C4(F)CC4)C(C)(C)C)C3C2)n1 (some centres unmarked); tested on = VHL/BRD9 (Homo sapiens, UniProt P40337+Q9H8M2); assay = ternary complex formation, NanoBiT; test system = HEK293T; setting = 2 h, together with: MLN4924 2 µM; EC50 = 0.024 µM
SMILES = CC[C@H](C)[C@@H](C(=O)N[C@@H](CC(C)C)C(=O)N[C@@H](CO)C(=O)N[C@@H](CO)C(=O)N[C@H](C(=O)N[C@@H](CCC(=O)O)C(=O)N[C@H](C(=O)NCC(=O)N[C@@H](CO)C(=O)N[C@@H](CC(N)=O)C(=O)N[C@H](C(=O)N1C[C@H](O)C[C@H]1C(N)=O)[C@@H](C)O)C(C)C)[C@@H](C)O)N(C)C(=O)[C@H](C)NC(=O)CN(C)C(=O)[C@H](Cc1ccccc1)NC(=O)[C@H](CO)NC(=O)[C@H](CO)NC(=O)[C@H](CCCNC(=N)N)NC(=O)[C@H](CCC(N)=O)NC(=O)[C@H](CC(C)C)NC(=O)[C@H](Cc1ccccc1)NC(=O)[C@H](Cc1c[nH]cn1)NC(=O)[C@H](C)NC(=O)[C@H](CC(C)C)NC(=O)[C@H](CCCNC(=N)N)NC(=O)[C@H](CCC(=O)O)NC(=O)[C@@H](NC(=O)[C@H](C)NC(=O)[C@@H]1CSSC[C@H](NC(=O)[C@H](CCCNC(=N)N)NC(=O)CC[C@H](NC(=O)CCCCCCCCCCCCCCCCCCC(=O)O)C(=O)O)C(=O)NCC(=O)N[C@@H]([C@@H](C)O)C(=O)N[C@@H](C)C(=O)N[C@@H]([C@@H](C)O)C(=O)N1)[C@@H](C)O; tested on = CALCR; assay = cAMP, agonist; EC50 = 0.000324 µM
SMILES = Fc1cccc(COc2ccc(Nc3ncnc4ccc(-c5ccc(N6CCOCC6)cc5)cc34)cc2Cl)c1; tested on = Leishmania major; assay = intracellular amastigote growth, luciferase; test system = RAW264.7 macrophages; EC50 = > 15 µM
SMILES = CC[C@H]1CN(C(c2cccc(C(F)(F)F)c2)c2nc(C(F)(F)F)nn2C)[C@H](CC)CN1c1nc(=O)n(C)c2ccc(C#N)nc12 (some centres unmarked); tested on = DGKZ (Homo sapiens, UniProt Q13574); assay = DGKζ-YFP translocation, high-content imaging; test system = Jurkat; EC50 = 0.004 µM
SMILES = CC(=O)NCCN(c1nc(NCc2n[nH]c3c2CCCC3)nc(N2CC3C(CCOc4cc(-c5scnc5C)ccc4CNC(=O)[C@@H]4C[C@@H](O)CN4C(=O)[C@@H](NC(=O)C4(F)CC4)C(C)(C)C)C3C2)n1)C(C)C (some centres unmarked); tested on = VHL/BRD9 with Elongin B/C; assay = ternary complex formation, AlphaScreen; setting = together with: 50 nM His-BRD9 and 20 nM biotin-VCB; EC50 = 0.888 µM
SMILES = CS(=O)(=O)Oc1cc(C=O)ccc1[N+](=O)[O-]; tested on = YWHAG/RELA, phospho-Ser45 p65 peptide (Homo sapiens, UniProt P61981+Q04206); assay = ternary complex formation, stabilizer, fluorescence anisotropy; EC50 = > 1000 µM
SMILES = CC(C)Oc1cc(Cl)ccc1CNc1cc(-c2ccccc2)nc2ncnn12; tested on = GPR3 (Homo sapiens, UniProt P46089, L136A); assay = cAMP level, agonist; setting = FLAG-10xHis tagged; EC50 = 2.62 µM
SMILES = CS(=O)(=O)c1ccc(-c2ccc3ncnc(Nc4ccc(OCc5cccc(F)c5)c(Cl)c4)c3c2)cc1; tested on = Leishmania major; assay = intracellular amastigote growth, luciferase; test system = RAW264.7 macrophages; EC50 = 3.9 µM

Excerpt of the above:
SMILES = COc1ccc2[nH]c(-c3cccc4ccccc34)c(CCNC(=O)CI)c2n1; tested on = MTNR1B (Homo sapiens, UniProt P49286); assay = GTPγS binding, agonist, radiometric; setting = cell membranes; EC50 = 0.000646 µM
